Measured values from different studies.
Numbered parts are unrelated; each lists some results of a single study. Several values in a cell are separate wells, animals, samples, runs or records.
UniProt P35372, sequence (whole entry, looked up): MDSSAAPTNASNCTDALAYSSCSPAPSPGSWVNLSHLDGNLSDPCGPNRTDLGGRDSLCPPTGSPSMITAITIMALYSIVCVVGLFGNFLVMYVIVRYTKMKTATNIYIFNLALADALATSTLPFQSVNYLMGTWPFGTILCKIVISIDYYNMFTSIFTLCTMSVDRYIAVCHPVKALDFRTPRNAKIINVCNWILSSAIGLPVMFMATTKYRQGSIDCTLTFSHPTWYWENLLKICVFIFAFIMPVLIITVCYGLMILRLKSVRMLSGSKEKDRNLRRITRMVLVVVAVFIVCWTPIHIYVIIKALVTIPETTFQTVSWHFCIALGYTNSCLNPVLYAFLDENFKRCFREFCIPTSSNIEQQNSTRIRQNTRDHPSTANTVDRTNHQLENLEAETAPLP
UniProt P9WI81, sequence (whole entry, looked up): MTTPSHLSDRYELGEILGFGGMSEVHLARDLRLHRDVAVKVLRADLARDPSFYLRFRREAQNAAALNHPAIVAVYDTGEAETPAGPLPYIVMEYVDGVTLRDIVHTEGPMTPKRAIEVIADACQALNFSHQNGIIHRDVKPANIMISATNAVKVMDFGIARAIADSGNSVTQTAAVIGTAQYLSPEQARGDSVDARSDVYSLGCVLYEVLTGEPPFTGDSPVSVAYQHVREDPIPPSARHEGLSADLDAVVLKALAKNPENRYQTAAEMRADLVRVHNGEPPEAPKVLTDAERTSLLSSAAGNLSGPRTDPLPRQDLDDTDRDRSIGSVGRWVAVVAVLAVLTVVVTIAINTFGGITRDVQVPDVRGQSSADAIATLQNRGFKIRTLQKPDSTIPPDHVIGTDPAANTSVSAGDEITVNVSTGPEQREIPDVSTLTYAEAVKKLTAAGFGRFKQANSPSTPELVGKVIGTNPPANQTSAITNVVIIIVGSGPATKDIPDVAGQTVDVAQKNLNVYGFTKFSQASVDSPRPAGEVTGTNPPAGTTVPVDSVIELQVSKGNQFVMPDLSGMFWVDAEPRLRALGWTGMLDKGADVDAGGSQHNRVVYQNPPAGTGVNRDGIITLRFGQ
UniProt Q695T7, sequence (whole entry, looked up): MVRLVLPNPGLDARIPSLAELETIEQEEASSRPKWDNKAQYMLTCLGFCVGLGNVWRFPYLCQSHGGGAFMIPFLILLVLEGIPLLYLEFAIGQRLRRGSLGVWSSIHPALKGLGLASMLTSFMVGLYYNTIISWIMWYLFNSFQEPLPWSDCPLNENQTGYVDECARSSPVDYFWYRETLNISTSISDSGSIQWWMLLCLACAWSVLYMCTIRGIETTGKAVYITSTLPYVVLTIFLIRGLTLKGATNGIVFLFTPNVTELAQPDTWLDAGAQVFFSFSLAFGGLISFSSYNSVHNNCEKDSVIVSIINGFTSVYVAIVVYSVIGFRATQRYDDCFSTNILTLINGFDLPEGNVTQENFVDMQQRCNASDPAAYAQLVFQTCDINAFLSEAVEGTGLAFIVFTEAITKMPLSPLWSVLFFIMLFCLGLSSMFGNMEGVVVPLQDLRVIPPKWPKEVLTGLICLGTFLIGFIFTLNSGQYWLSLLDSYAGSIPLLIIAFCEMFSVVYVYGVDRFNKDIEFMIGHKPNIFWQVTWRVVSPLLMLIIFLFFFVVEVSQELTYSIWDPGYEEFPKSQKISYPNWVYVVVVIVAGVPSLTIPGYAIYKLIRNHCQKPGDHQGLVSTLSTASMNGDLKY

Sample 1
SMILES: Cn1cc(-c2cccc(CN3CCC4(CC3)COc3c4ccc4c3CN([C@H]3CCC(=O)NC3=O)C4=O)c2)cn1
Host: Crbn I391V mouse, MC-38 tumour
Dose: 30 mg/kg
Measurement: body weight change
oral, daily, day 15, anti-PD1 combination study: -3% and 5.2% and 3.3% and 4.4% and 1.7%
day 25, with: anti-LAG3 antibody 10 mg/kg weekly: -0.4% and -2.8% and 1.2% and 3.3% and 7.4%
day 19, with: anti-LAG3 antibody 10 mg/kg weekly: 0.4% and 8.2% and -4.2% and -1.6% and 10.1% and 1.1% and -3.5%
day 11, with: anti-LAG3 antibody 10 mg/kg weekly: 0.8% and -2.4% and 9% and 8.5%
oral, daily, day 36, anti-PD1 combination study: 11.4% and 23.1% and -1.7%
oral, daily, day 39, anti-PD1 combination study: 12.2%
day 50, with: anti-LAG3 antibody 10 mg/kg weekly: 9.9%

Single results of other studies
CC(C)OC(=O)[C@H](CCC(=O)C=[N+]=[N-])NC(=O)[C@H](Cc1c[nH]c2ccccc12)NC(=O)C12CCN(CC1)CC2 — DON concentration (P493B lymphoma cells; P493B cells in human plasma; concentration not given, tumour cell fraction of partition): 0 nmol/g
N=C(N)NCCCCCCN1CCC23c4c5ccc(O)c4OC2c2nc4ccccc4cc2CC3(O)C1C5 (centres unmarked) — normalised specific binding (Mu-type opioid receptor (OPRM1, Homo sapiens, UniProt P35372); competitor, radioligand binding; 1 µM): 12.6% and 19.3% and 25.5%
CC[C@@]1(c2cccc(C(F)(F)F)c2)C2=C(Nc3n[nH]cc31)[C@H](F)C(C)(C)CC2=O (single isomer, unassigned) — remaining binding (Serine/threonine-protein kinase PknB (pknB, Mycobacterium tuberculosis, UniProt P9WI81); binding, competition with immobilised ligand; 1 µM): 100%
CCCCC[C@@H](O)CC(=O)N[C@@H]1C(=O)N[C@H](CCCNC(=N)N)C(=O)N[C@@H](CO)C(=O)NCC(=O)N(C)[C@H](Cc2ccccc2)C(=O)N[C@@H](CC(C)C)C(=O)N[C@H](CCCNC(=N)N)C(=O)N[C@@H](CCC(=O)O)C(=O)N[C@H](CCC(N)=O)C(=O)N[C@H](Cc2c[nH]c3ccccc23)C(=O)N[C@@H]([C@@H](C)CC)C(=O)N[C@@H]([C@@H](C)O)C(=O)O[C@@H]1C — viable cells (Staphylococcus aureus; USA300; 2 x MIC, 360 min): 200 CFU/mL and 300 CFU/mL
C#CCN1C(=O)C(O)(C(=O)O)Oc2cc(F)ccc21 (centres unmarked) — fresh weight (Arabidopsis thaliana; shoots; foliar spray, 200 µg/mL, 20 days): 367 mg
O=[N+]([O-])c1ccc(C2=NOC3(NC(c4ccccc4)=NO3)N2c2ccccc2)cc1 (centres unmarked) — IC50 (Plasmodium falciparum; parasite growth; SB1-A6 atovaquone-resistant; 72 h): > 1000 µM
CCCNC(=O)COc1ccc(Br)c(C)c1 — normalised transport activity (Sodium-dependent neutral amino acid transporter B(0)AT1 (SLC6A19, Homo sapiens, UniProt Q695T7); inhibitor, FLIPR membrane potential; CHO-BC cells; 0.001 µM): 0.982
